Published values pooled from the literature.
Each line is one published result; not all experiments were run side by side. ± marks the error that the study gave.

COc1cc2ncnc(Nc3ccc(Oc4ccccc4)c(C)c3C)c2cc1OC
viability (COLO 205 (BRAF V600E); resazurin; 3 µM, 72 h, together with: trametinib; baseline: DMSO): 70.7%

OCc1nc2ccc(OCc3ccc(C(F)(F)F)cc3)cc2[nH]1
viability (sample A patient iPSC-derived NPCs; MTS; 10 µM, 24 h; baseline: vehicle): 106.9 ± 0.61%

CC(C)(C)OC(=O)CN(Cc1ccc(Cl)cc1)Cc1ccc([N+](=O)[O-])s1
viability (OCI-Ly1; 1 µM, 120 h): 104%

OCc1nc2cc(C(O)c3ccc(F)cc3)ccc2[nH]1 (stereo not drawn)
viability (sample A patient iPSC-derived NPCs; MTS; 10 µM, 24 h; baseline: vehicle): 102 ± 4.25%

Nc1ncnc2c1ncn2[C@@H]1O[C@H](CSCC[C@H](N)C(=O)O)[C@@H](O)[C@H]1O
viability (OCI-Ly1; 1 µM, 120 h): 156%

Cc1cccc(-c2[nH]c(CNc3ccccc3F)nc2-c2ccc3ncnn3c2)n1
viability (MM1.S; XTT; 1.8 µM; baseline: untreated): 23%

COc1cc2ncnc(Nc3ccc(Oc4ccccc4)cc3C)c2cc1OC
viability (COLO 205 (BRAF V600E); resazurin; 1 µM, 72 h, together with: trametinib 0 nM): 85.7%

O=C(CCCCCCC(=O)Nc1cccnc1)NO
viability (OCI-Ly1; 1 µM, 120 h): 45.2%

OCc1nc2ccc(NCc3ccc(SC(F)(F)F)cc3)cc2[nH]1
viability (sample A patient iPSC-derived NPCs; MTS; 10 µM, 24 h; baseline: vehicle): 148 ± 3.43%
